{"data": "Measurements gathered from unrelated publications", "note": "Protocols differ between the studies behind these lines. ± marks the error that the study gave."}
{"SMILES": "CCOCCOC(=O)Nc1cc2nc(C3CCCCC3)[nH]c2cc1N(CC)CC", "cell line": "Vero", "assay": "cytotoxicity, Alamar Blue", "conditions": "3 days, 37 °C", "IC50": "> 100 µg/mL"}
{"SMILES": "Cc1c(O)cc(C[C@]23C[C@H](C[C@H](C)O2)c2c4c(c(O)c(C)c2O3)CO[C@]2(CCC[C@H](C)O2)C4)c(C=O)c1O", "cell line": "IMR-90", "assay": "cytotoxicity", "IC50": "38 µM"}
{"SMILES": "CCCOCC(=O)Nc1cc2nc(C3CCCCC3)[nH]c2cc1N(CC)CC", "cell line": "Vero", "assay": "cytotoxicity, Alamar Blue", "conditions": "3 days, 37 °C", "IC50": "> 100 µg/mL"}
{"SMILES": "CCCN(Cc1ccccc1OC)C(=O)c1cc(C)c(C)s1", "cell line": "HEK293", "assay": "cell viability, MTT", "conditions": "72 h", "IC50": "3.9 ± 1.6 µM"}
{"SMILES": "C=C[C@]1(C)CC[C@H]2C(=C1C#N)c1c([nH]c3ccccc13)C2(C)C (relative stereo)", "cell line": "SF-268", "assay": "cytotoxicity", "IC50": "> 40 µM"}
{"SMILES": "CC(C)(O)[C@H](O)COc1c2occc2cc2ccc(=O)oc12", "cell line": "NIH3T3", "assay": "cell growth or viability, MTT", "conditions": "24 h", "IC50": "65.8 µM"}
{"SMILES": "CCCCN(Cc1ccccc1OC)C(=O)c1cc(C)c(C)s1", "cell line": "HEK293", "assay": "cell viability, MTT", "conditions": "72 h", "IC50": "24 ± 13 µM"}
{"SMILES": "CC1=C(CC(=O)Oc2ccc(-c3cc(=S)ss3)cc2)c2cc(F)ccc2/C1=C\\c1ccc([S+](C)[O-])cc1 (stereo not drawn)", "cell line": "HepG2 and LS180", "assay": "EROD activity, inhibitor", "conditions": "24 h, averaged over cell lines, with: DMBA 1 µM", "IC50": "8.5 µM"}
{"SMILES": "CCCCOC(=O)Nc1cc2nc(C3CCCCC3)[nH]c2cc1N(CC)CCN(C)C", "cell line": "Vero", "assay": "cytotoxicity, Alamar Blue", "conditions": "3 days, 37 °C", "IC50": "> 100 µg/mL"}
{"SMILES": "COc1cccc2c1C(=O)c1c(O)c3c(c(O)c1C2=O)C[C@@](O)(C(=O)CO)C[C@@H]3O[C@H]1C[C@H](N)[C@H](O)[C@H](C)O1", "cell line": "NIH3T3", "assay": "cell growth or viability, MTT", "conditions": "24 h", "IC50": "5.71 µM"}
{"SMILES": "CCOCCOC(=O)Nc1cc2nc(C3CCCCC3)[nH]c2cc1N1CCCC1", "cell line": "Vero", "assay": "cytotoxicity, Alamar Blue", "conditions": "3 days, 37 °C", "IC50": "> 100 µg/mL"}
{"SMILES": "CCCN(Cc1ccccc1OC)C(=O)c1ccc(F)c(Br)c1", "cell line": "HEK293", "assay": "cell viability, MTT", "conditions": "72 h", "IC50": "36 ± 12 µM"}
{"note": "A few entries again:"}
{"SMILES": "CCCN(Cc1ccccc1OC)C(=O)c1cc(C)c(C)s1", "cell line": "HEK293", "assay": "cell viability, MTT", "conditions": "72 h", "IC50": "3.9 ± 1.6 µM"}
